Results pooled from the literature.
Protocols differ between the studies behind these lines. Values joined by “and” are separate records of one study, mostly repeats; a detail may differ.
Target: Tyrosine-protein kinase FRK (FRK, Homo sapiens, UniProt P42685)

| SMILES | assay | system | conditions | scale | quantity | value |
| --- | --- | --- | --- | --- | --- | --- |
| COc1cc(Nc2nc(C)cc(-c3cnn4nc(OC)ccc34)n2)cc(C(F)(F)F)c1 | inhibitor | – | 1 µM | reference: control | remaining activity | 100% |
| Nc1ncc2c(n1)-c1c([nH]c3ccc(C4=CCOCC4)cc13)CCC2 | binding, competition with immobilised ligand | – | 1 µM | – | remaining binding | 100% |
| N[C@H]1CC[C@H](Nc2nccc(-c3cccnc3Oc3ccc(NC(=O)NC4CC4)c4ccccc34)n2)CC1 | kinobead competition pulldown | HEK293/HCT116 lysate mixture | 10 µM, 1 h, 4 °C | lower = stronger competition | log2 LFQ intensity | 22.9 and 23.1 and 23 |
| Nc1ncc(-c2cc(-c3cnn(CC(F)(F)F)c3)ncc2F)nc1C(=O)NC1CNCC(F)C1 (stereo not shown) | enzyme activity | – | 1 µM | reference: DMSO control | remaining activity | 97% |
| C=CC(=O)Nc1cccc(-c2cnc3[nH]cc(C(=O)NC(C)(C)C)c3n2)c1 | kinase activity | – | 0.1 µM | – | inhibition | 10% and 9% |
| Cc1cnc2nc1Nc1cccc(c1)COC/C=C/COCc1cc(ccc1OCCN1CCOCC1)N2 | binding, competition with immobilised ligand | – | 0.1 µM | – | remaining binding | 93% |
| Cc1ccc(-c2c(/C=C(\C#N)C(=O)NC(C)C)n(CCCO)c3ncnc(N)c23)cc1 | cell-free assay, competition with immobilised ligand | – | 1 µM | – | remaining binding | 58% |
| Cc1cccc(O[C@H]2CCC[C@@H](C(C)CNCc3ccncc3)C2)c1 (relative stereo) | cell-free assay, inhibitor | – | 10 µM | – | inhibition | -2% |
| C=CC(=O)N1Cc2nc(-c3cc(-c4cc(Cl)cnc4Cl)c(F)cc3F)n(-c3ccncn3)c2C1 | cell-free assay, inhibitor | – | 1 µM | – | inhibition | -0.4% |
| CNC1C[S+]2CC[S+]3CC[S+](C1)[Ru-4]321([N]=C=S)[n]2c3ccc(OC)cc3c3c4c(c5cc(F)c[n+]1c5c32)C(=O)NC4=O (stereo not shown) | KinomeScan | – | 0.1 µM | reference: untreated | remaining binding | 100% |
| C=CC(=O)N1CCc2ccc(-n3c(=O)ccc4cnc5ccc(-c6cnn(C)c6)cc5c43)cc21 | KINOMEscan | – | 1 µM | reference: DMSO control | remaining binding | 100% |
| CN1CC[C@@H](COc2cnc(C#N)cc2-c2ccn3nc(NC(=O)C4CC4)cc3c2)C1 | enzyme activity, inhibitor | – | 1 µM | – | inhibition | 2% |
| COc1c(Cl)cccc1Nc1c(-c2ccncc2C#C[C@@]2(C)CCCN2C(=O)/C=C/CN(C)C)[nH]c2c1C(=O)NCC2 | cell-free assay, competition with immobilised ligand | – | 3 µM | – | remaining binding | 91% |
| NC(=O)C[C@H]1CCc2sc3ncnc(O[C@H]4CC[C@H](N5CCOCC5)CC4)c3c21 | enzyme activity, inhibitor, radiometric | – | 10 µM | – | inhibition | 12% |
| C=CC(=O)Nc1cc(-c2nn(C3CCN(CCNC(=O)[C@H](C)CCC45CC6CC(CC(C6)C4)C5)CC3)c3ncnc(N)c23)ccc1Oc1ccccc1 | inhibitor, KiNativ profiling | biochemical | 2 µM | – | inhibition | 38.6% |
| CCN1CCN(Cc2ccc(C(=O)Nc3ccc(C)c(NCc4cnc5[nH]ccc5c4OC)c3)cc2C(F)(F)F)CC1 | binding, competition with immobilised ligand | – | 1 µM | – | remaining binding | 2.2% |

A few entries again:
| SMILES | assay | system | conditions | scale | quantity | value |
| --- | --- | --- | --- | --- | --- | --- |
| Cc1ccc(-c2c(/C=C(\C#N)C(=O)NC(C)C)n(CCCO)c3ncnc(N)c23)cc1 | cell-free assay, competition with immobilised ligand | – | 1 µM | – | remaining binding | 58% |
| Cc1cccc(O[C@H]2CCC[C@@H](C(C)CNCc3ccncc3)C2)c1 (relative stereo) | cell-free assay, inhibitor | – | 10 µM | – | inhibition | -2% |
